Results gathered from unrelated publications.
Parts stem from different laboratories: compare values within a part only. Changes are numbered by the printed parent chain.

Block 1
Target: Protein C-ets-1 (ETS1, Homo sapiens, UniProt P14921, residues 1-441, K379A, full length assumed)
Method: protein-binding microarray
Molecule type: double-stranded DNA, one strand shown
Sample: in vitro
Concentration: not given
Setting: k-mer, scored over probes, only values ≥0.25
Reading: higher = stronger binding
Residues (chain): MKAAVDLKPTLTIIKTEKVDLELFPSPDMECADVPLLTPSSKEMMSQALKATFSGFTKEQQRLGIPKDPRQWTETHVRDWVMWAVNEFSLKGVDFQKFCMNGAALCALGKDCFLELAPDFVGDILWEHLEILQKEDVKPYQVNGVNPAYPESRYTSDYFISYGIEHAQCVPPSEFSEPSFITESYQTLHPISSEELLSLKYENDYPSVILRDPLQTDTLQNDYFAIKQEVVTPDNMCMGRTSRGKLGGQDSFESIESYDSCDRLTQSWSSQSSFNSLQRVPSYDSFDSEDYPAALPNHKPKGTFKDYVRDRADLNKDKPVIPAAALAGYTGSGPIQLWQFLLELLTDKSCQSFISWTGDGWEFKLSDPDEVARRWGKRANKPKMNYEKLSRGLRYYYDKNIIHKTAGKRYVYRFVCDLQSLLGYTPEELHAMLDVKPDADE
Oligonucleotide | E-score
CATGTGTA | 0.258
ACGGTAAT | 0.303
AACCCCGG | 0.387
CGACGGCA | 0.253
AATAACTG | 0.274
ATTTCCCG | 0.267
ACGCCGGG | 0.287
CGGGAAGA | 0.264
GCCGGGAA | 0.303
GCCGGGGA | 0.381
GTGTATAA | 0.276
CCGGCACG | 0.309
AACGATAT | 0.312
GTATAGTA | 0.279
TTACCGAA | 0.319
ATATGTGG | 0.258
TAACGTAA | 0.279
ACATCCCG | 0.274
ACCGGACA | 0.272
ATACAATA | 0.287
ACAGTACA | 0.317
AGTACCGG | 0.361
CTTCCGGA | 0.371
ACATGATA | 0.252

Block 2
Target: CCNB3, cyclin fold, Cln2 fusion (human)
Method: yeast growth competition, sequencing
Sample: yeast
Setting: weak parent motif
Relative to: not given
Reading: higher = stronger binding
Parent: CENPC docking peptide (human); VKTKKRLNFDDKV
Change | normalised enrichment score
VKTKKRLNLDDKV [F9L] | 0.0752
VKTKKRLNFADKV [D10A] | -0.141
VKTKARLNFDDKV [K5A] | 0.304
VATKKRLNFDDKV [K2A] | 0.339
VKTAKRLNFDDKV [K4A] | 0.156
VKTKKALNFDDKV [R6A] | 0.0442
VKTKKRLAFDDKV [N8A] | 0.691

Block 3
Target: ABI1, truncated, D143A, DHFR fusion (Arabidopsis thaliana, UniProt P49597)
Method: DHFR PCA, dose-response
Sample: yeast
Setting: Hill fit, not affinity, not high confidence
With: (+)-ABA, dose series
Reading: lower = more sensitive
Parent: PYL1, truncated, DHFR fusion (Arabidopsis thaliana, UniProt Q8VZS8); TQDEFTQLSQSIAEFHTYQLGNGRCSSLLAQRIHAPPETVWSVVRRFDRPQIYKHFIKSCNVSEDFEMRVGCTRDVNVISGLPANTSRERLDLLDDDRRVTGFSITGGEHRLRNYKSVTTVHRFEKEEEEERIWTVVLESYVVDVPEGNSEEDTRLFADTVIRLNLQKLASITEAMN
Change | ABA EC50 [µM]
V121E | 20.5
T120L | 924
V143R | 118
L82G | 211
Y115G | 0.0365
T120F | 305
F56K | 4.61
N114P | 2420
R88P | 1160
Q167Y | 16.6
L91D | 2.3
C60Q | 1980
S27L | 384
L82F | 0.481
L169H | 8.2
V121W | 8.65
K54T | 0.03
Q31D | 709
T119G | 9.72

Block 4
Target: CEP164, C-terminal peptide (human)
Method: DHFR complementation, deep sequencing
Sample: yeast
Setting: single substitutions, model-inferred values
Relative to: wild type
Reading: higher = weaker binding
Parent: PDZK1, PDZ domain 2 (human); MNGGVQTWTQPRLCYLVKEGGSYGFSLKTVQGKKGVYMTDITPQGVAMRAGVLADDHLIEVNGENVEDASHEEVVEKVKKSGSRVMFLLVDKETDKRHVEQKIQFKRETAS; partner HNRVKVYRF
Change | binding free energy change [kcal/mol]
F87V | 0.643
C14H | 0.316
A69C | -0.213
Y37F | 0.0674
K96S | -0.0224
W8I | -0.137
V17C | 0.0393
K80Y | 0.828
E19I | 0.339
Y23H | 1.47
G4T | 0.0351
W8N | -0.0352
V61L | 0.791
E76Q | 0.00191
N65V | 0.322
E100M | -0.0839

Block 5
Target: Ras GTPase-activating protein-binding protein 1, full length (G3BP1, Homo sapiens, UniProt Q13283)
UniProt Q13283, sequence (whole entry, looked up): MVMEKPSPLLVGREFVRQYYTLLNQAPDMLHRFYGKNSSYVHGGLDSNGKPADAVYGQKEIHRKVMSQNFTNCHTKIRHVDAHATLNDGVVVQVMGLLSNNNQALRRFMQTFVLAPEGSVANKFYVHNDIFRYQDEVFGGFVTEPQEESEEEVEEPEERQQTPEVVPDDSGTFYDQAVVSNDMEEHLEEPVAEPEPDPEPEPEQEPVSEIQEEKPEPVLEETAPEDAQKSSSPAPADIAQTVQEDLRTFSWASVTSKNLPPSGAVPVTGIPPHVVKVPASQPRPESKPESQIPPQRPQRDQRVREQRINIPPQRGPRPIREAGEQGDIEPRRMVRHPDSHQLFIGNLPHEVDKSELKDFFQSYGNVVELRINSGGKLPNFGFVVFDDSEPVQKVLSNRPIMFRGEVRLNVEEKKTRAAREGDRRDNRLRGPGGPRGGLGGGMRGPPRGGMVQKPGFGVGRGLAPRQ
Method: RNA Bind-n-Seq
Molecule type: RNA
Sample: in vitro
Concentration: 200 nM
Setting: whole 134-nt RNA, ends assumed
With: 150 mM KCl
Relative to: input library
Reading: higher = stronger binding
All sequences stand within: GGGAGUUCUACAGUCCGACGAUC … UGGAAUUCUCGGGUGUCAAGG
Oligonucleotide | log2 enrichment
CACAGACAACACGCACCCACACAGACACAGAGGGAAGGGGUUGGGAUGGGGACAGGGUGCACAGCAGGGCGAGGUAGGACCCCAGCCCCU | 2
CAAGUCCUGUGCUACACAUCGUAUGUACCGAAUCGGGUUUGGGAGGGUUUUUGGGAAAGUAUUAUGUUACGCCGUUCGGAUCUGCACUUC | 0.479
UAACUUUAGAGGAGGAUCUGAUGGAUAUGGCAGUAGACGUGGAUUUGGGGAUGGCUAUAAUGGGUAUGGAGGAGGACCUGGAGGUGGCAA | 0.54
UCCUGUGCUACACAUCGUAUGUACCGAAUCGGCCCCCCCGGCCCCCCCGGCCCCCCCGGGAAAGUAUUAUGUUACGCCGUUCGGAUCUGC | 0.419
UAACUUUAGAGGAGGAUCUGAUGGAGAUGGCAGUGGACGUGGAUUUGGGGAUGGCUAUAAUGGGUAUGGAGGAGGACCUGGAGGUGGCAA | 0.544
CACUGACAACACGCACCCACACAGACACAGAGGGAAGGGGUUGGGAUGGGGACAGGGUGCACAGCAGGGCGGGGUAGGACCCCAGCCCCU | 1.73
UCCUGUGCUACACAUCGUAUGUACCGAAUCGGGGAAAAAGGGGAAAAAGGGGAAAGGGGAAAGUAUUAUGUUACGCCGUUCGGAUCUGCA | 0.666
CAAGUCCUGUGCUACACAUCGUAUGUACCGAAUCGGGGAGGGGUGGGGUUUGGGGAAAGUAUUAUGUUACGCCGUUCGGAUCUGCACUUC | 1.26
AAGUCCUGUGCUACACAUCGUAUGUACCGAAUCGGAAAAGGAAAAGGGGAAAAGGGAAAGUAUUAUGUUACGCCGUUCGGAUCUGCACUU | -0.933
UCCUCAAGUCCUGUGCUACACAUCGUAUGUACCGAAUCGGUUUGGUGGUGGAAAGUAUUAUGUUACGCCGUUCGGAUCUGCACUUCCAGC | -0.519
AGUCCUGUGCUACACAUCGUAUGUACCGAAUCGGAAAAAGGGAAAAAGGAAAAAGGGGAAAGUAUUAUGUUACGCCGUUCGGAUCUGCAC | -0.87
UGUGCUACACAUCGUAUGUACCGAAUCGGGGAAAAAAAGGGGAAAAAAAGGGAAAAAAAGGGGAAAGUAUUAUGUUACGCCGUUCGGAUC | -0.418
ACCAUGCAGGUGGGCAUCUUUGGGAAGUGGGGCAAGGGUGGGAUAGGGAGGGGGGUAACACUUUGGGAACAGGUGGUCCCAGGUCGUUUC | 0.969
UCAAGUCCUGUGCUACACAUCGUAUGUACCGAAUCGGUUUUUGGUUUGGUUUGGAAAGUAUUAUGUUACGCCGUUCGGAUCUGCACUUCC | -0.939

Block 6
Target: CREBRF, bZIP domain (human)
Method: DHFR protein complementation
Sample: yeast
Setting: single substitutions, most at no-binding floor
Relative to: wild-type JUN-FOS pair
Reading: higher = stronger binding
Parent: JUN, bZIP domain (human); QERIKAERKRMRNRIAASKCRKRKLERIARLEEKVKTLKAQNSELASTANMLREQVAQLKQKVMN; partner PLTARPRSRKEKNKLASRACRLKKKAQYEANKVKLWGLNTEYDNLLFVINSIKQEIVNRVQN
Change | binding fitness
Q55C | -1.6 natural log
R53P | -1.5 natural log
A29M | -1.25 natural log
N42G | -1.48 natural log
R53N | -1.52 natural log
T48P | -1.5 natural log
V56C | -1.44 natural log
T37E | -1.36 natural log
N42D | -1.53 natural log
A49M | -1.39 natural log
L38A | -1.41 natural log
A49W | -1.34 natural log

Block 7
Target: Interferon regulatory factor 5, full length, phosphomimetic (IRF5, Homo sapiens, UniProt Q13568-2, residues 1-514, K96S/S451D/S453D/S456D/S462D)
Method: protein-binding microarray
Molecule type: double-stranded DNA, one strand shown
Sample: in vitro
Concentration: 250 nM
Setting: 60-bp whole probe
With: salmon DNA 0.4 mg/ml
Relative to: random background probes
Reading: higher = stronger binding
All sequences stand within: GCCTAGCAC … GTCTTGATTCGCTTGACGCTGCTG
Oligonucleotide | log fluorescence [z-score]
GACGGTATTCTTATCCTGACGTGCTAG | 0.0247
GACGGACTGGGGTATCGGTACGTGCTA | 1.02
TCCTCTTTCACTGCTCCCCACGTGCTA | 3.47
GACGATATCGGCTTTCGAGACGTGCTA | 4.08
ATAGATATCAGTATCGATTAGTGCTAG | 7.92
TTAGGACTGGGTCTCTGTTAGTGCTAG | -0.454
GAATTTCCCACTTTCAGTTCGTGCTAG | 5.78
GACGGTTTCGATACTGGGGACGTGCTA | 8.65
TTAGGTTTCGAGACTGGGTTAGTGCTA | 4.75
TTAGGACTGCATATCCTTTAGTGCTAG | -0.442
GACGGACTGGTACTGGGGACGTGCTAG | -0.384
TCAAGGTTGTTTCTAATACTGTGCTAG | 0.874
TTAGGACTGGACTACCGGTTAGTGCTA | -0.341
TTAGGTATCGGTTGCGGTTAGTGCTAG | 8.06
TTAGGTTTCGCGACTGGGTTAGTGCTA | 1.43
TCACATTTTCTCTTATTACTGTGCTAG | 2.08
GACGGTTTCGGGTTCCGGGACGTGCTA | 7.59
GGCGGACTGGACTTTCGGGACGTGCTA | 4.29
